Measured values from different studies.
Protocols differ between the studies behind these lines. Numbers after ± are the reported error.

SMILES	assay	system	conditions	clearance
CN[C@@H](C)C(=O)N[C@H]1CN(S(=O)(=O)c2cccc(S(=O)(=O)N3CC[C@H]4CC[C@@H](C(=O)NC(c5ccccc5)c5ccccc5)N4C(=O)[C@@H](NC(=O)[C@H](C)NC)C3)c2)CC[C@H]2CC[C@@H](C(=O)NC(c3ccccc3)c3ccccc3)N2C1=O	LC-MS/MS, noncompartmental	human, plasma	45 mg, cycle 1 day 1	852 ± 387 mL/min
NC(=O)N1c2ccccc2CC(O)c2ccccc21 (centres unmarked)	population PK modelling	human patients, plasma	weight-scaled, proportional error	47.2 mL/min
Cc1ccc([C@@H]2O[C@H](CO)[C@@H](O)[C@H](O)[C@H]2O)cc1Cc1ccc(-c2ccc(F)cc2)s1	–	human, maintenance hemodialysis patients	oral, 300 mg once daily, steady state, mean	218 mL/min
CCN(CC)CCN(CCNCCc1ccc(O)c2[nH]c(=O)sc12)C(=O)CCOCCc1cccc2ccccc12	–	human	–	3.83 mL/min/kg
CC1(C)CCC(CN2CCN(c3ccc(C(=O)NS(=O)(=O)c4ccc(NCC5CCOCC5)c([N+](=O)[O-])c4)c(Oc4cnc5[nH]ccc5c4)c3)CC2)=C(c2ccc(Cl)cc2)C1	–	human CLL patients, plasma	oral, median	66.7 mL/min
Nc1ccn([C@@H]2O[C@H](CO)[C@@H](O)C2(F)F)c(=O)n1	HPLC-UV	human, plasma	800 mg/m^2, median, after paricalcitol	48.1 L/h/m²
CN(C)N=Nc1[nH]cnc1C(N)=O	–	human patients, plasma	intravenous infusion, 1000 mg/m^2, 1 h infusion, cycle 1 day 1, alone	9.62 L/h/m²
Cn1cncc1[C@@](N)(c1ccc(Cl)cc1)c1ccc2c(c1)c(-c1cccc(Cl)c1)cc(=O)n2C	–	healthy human, plasma	intravenous, 25 mg	583 mL/min
Cc1c2oc3c(C)ccc(C(=O)N[C@@H]4C(=O)N[C@H](C(C)C)C(=O)N5CCC[C@H]5C(=O)N(C)CC(=O)N(C)[C@@H](C(C)C)C(=O)O[C@@H]4C)c3nc-2c(C(=O)N[C@@H]2C(=O)N[C@H](C(C)C)C(=O)N3CCC[C@H]3C(=O)N(C)CC(=O)N(C)[C@@H](C(C)C)C(=O)O[C@@H]2C)c(N)c1=O	population PK, three-compartment	human	–	11.9 L/h/70 kg
Cc1cn(-c2cc(NC(=O)c3ccc(C)c(Nc4nccc(-c5cccnc5)n4)c3)cc(C(F)(F)F)c2)cn1	population PK model	human, plasma	oral, typical value	575 mL/min
COc1cc(NC(=O)CCN2CCC(OC(=O)Nc3ccccc3-c3ccccc3)CC2)c(Cl)cc1CNC[C@H](O)c1ccc(O)c2[nH]c(=O)ccc12	–	human	–	55 mL/min/kg
CO[C@]1(C(=O)N[C@@H](C)c2ccc(-n3cc(F)cn3)nc2)CC[C@H](c2nc(C)cc(Nc3cc(C)[nH]n3)n2)CC1	–	human	oral, population PK, assumed F=0.5	134 mL/min
CC(=O)O[C@H]1C(=O)[C@@]2(C)[C@H]([C@H](OC(=O)c3ccccc3)[C@]3(O)C[C@H](OC(=O)[C@H](O)[C@@H](NC(=O)c4ccccc4)c4ccccc4)C(C)=C1C3(C)C)[C@]1(OC(C)=O)CO[C@@H]1C[C@@H]2O	–	human, plasma	intravenous infusion, 80 mg/m^2, day 5, with oral co-drug daily	277 mL/min
Cn1cnc2c(F)c(Nc3ccc(Br)cc3Cl)c(C(=O)NOCCO)cc21	transit compartment absorption model	human, plasma	oral	145 mL/min
O=C(/C=C/c1cccc(S(=O)(=O)Nc2ccccc2)c1)NO	–	human patients, plasma	1800 mg/m^2	33.4 L/h/m²
CN(C)CCCNC(=O)/C(=C/CCCCC(=O)NO)COc1cccc2ccccc12	–	human	iv, 250 mg/m2, day 1, single dose, mean	115 mL/min
NS(=O)(=O)OC[C@@H]1C[C@@H](n2ccc3c(N[C@H]4CCc5ccccc54)ncnc32)C[C@@H]1O	–	human females, plasma	median, BSA-adjusted	17.9 L/h/m²
